Results collected from several papers.
Numbered parts are unrelated; each lists some results of a single study. Positions count from the first letter of the parent shown.

Sample 1
Target: Ras GTPase-activating protein-binding protein 1, RRM domain (G3BP1, Homo sapiens, UniProt Q13283)
Sequence of UniProt Q13283 (whole entry, looked up): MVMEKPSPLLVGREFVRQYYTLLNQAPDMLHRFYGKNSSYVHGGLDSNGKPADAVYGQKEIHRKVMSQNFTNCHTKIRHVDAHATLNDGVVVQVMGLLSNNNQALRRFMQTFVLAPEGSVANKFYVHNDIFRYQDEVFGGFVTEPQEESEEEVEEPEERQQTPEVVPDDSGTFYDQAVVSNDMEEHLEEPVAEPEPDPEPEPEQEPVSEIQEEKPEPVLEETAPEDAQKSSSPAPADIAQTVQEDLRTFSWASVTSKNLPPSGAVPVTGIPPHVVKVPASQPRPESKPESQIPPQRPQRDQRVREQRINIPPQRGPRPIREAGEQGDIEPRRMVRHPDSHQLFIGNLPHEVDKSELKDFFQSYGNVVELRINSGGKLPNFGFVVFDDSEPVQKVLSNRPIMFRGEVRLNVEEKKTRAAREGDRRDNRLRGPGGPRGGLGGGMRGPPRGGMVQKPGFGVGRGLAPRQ
Technique: RNA Bind-n-Seq
Molecule type: RNA
Sample: in vitro
Concentration: 1 µM
Setting: whole 134-nt RNA, ends assumed
Together with: 150 mM KCl
Relative to: input library
Direction: higher = stronger binding
Strand | log2 enrichment
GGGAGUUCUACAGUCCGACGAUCAAGUCCUGUGCUACACAUCGUAUGUACCGAAUCGGGAAAAGGAAAAGGGGAAAAGGGAAAGUAUUAUGUUACGCCGUUCGGAUCUGCACUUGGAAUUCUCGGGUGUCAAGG | 0.00589
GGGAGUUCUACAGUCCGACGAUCUCUAGAUACAGAUGCACGAUUUGGCCAUGGAUCCGACUACUCUCGCCAACAGAACAGAUUUAAUGACUUUGAUCACCGAGAGAGGGGCAGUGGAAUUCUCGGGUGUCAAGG | -0.0382
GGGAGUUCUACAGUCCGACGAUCUACCAUGGUGGAAGUUCCCGUUCUCGUAGCAGUAUUUUCCAUGCAGGAAAAAGCCAAGGACUACAUGAAAACAACAUACCUGACAAUGAAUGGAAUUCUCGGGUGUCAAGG | 0.0268
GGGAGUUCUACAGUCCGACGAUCAGUCCUGUGCUACACAUCGUAUGUACCGAAUCGGAAAAAGGGAAAAAGGAAAAAGGGAAAGUAUUAUGUUACGCCGUUCGGAUCUGCACUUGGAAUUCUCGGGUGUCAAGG | 0.0469
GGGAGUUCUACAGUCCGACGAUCUCCUGUGCUACACAUCGUAUGUACCGAAUCGGGCCCCCGGGGCCCCCGGGGCCCCCGGGGAAAGUAUUAUGUUACGCCGUUCGGAUCUGCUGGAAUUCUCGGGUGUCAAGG | -0.805
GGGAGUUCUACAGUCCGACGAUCGUGGACAACGCGUACUGGCUGUGGACUUUCCAGGGACGCCUCCUGCAGAAGAACAACAAGGACCGCUUCUGCCAGCUGCUGUGGCGGCCCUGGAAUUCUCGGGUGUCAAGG | -0.468
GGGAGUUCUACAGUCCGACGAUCUAACUUUAGAGGAGGAUCUGAUGGAUAUGGCAGUGGACGUGGAUUUGGGGAUGGCUAUAAAGGGUAUGGAGGAGGACCUGGAGGUGGCAAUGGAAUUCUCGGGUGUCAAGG | -0.464
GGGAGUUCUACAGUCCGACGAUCCACAGACAACACGCACCCACACAGACACAGAGGGAAGGGGUUGGGAUGGGGACAGGGUGCACAGCAGGGAAAGGUAGGACCCCAGCCCCUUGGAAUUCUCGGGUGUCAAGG | -0.192
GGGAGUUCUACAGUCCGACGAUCCCUGUGCUACACAUCGUAUGUACCGAAUCAAAUUUUUUUAAAUUUUUAAAUUUUUUUAAAAAAGUAUUAUGUUACGCCGUUCGGAUCUGCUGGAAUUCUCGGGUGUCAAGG | -0.266

Sample 2
Target: CCND2, cyclin fold, Cln2 fusion (human)
Technique: yeast growth competition, sequencing
Sample: yeast
Setting: weak parent motif
Relative to: not given
Direction: higher = stronger binding
Starting sequence: PKN2 docking peptide (human); VSAVQKLDFSDTM; partner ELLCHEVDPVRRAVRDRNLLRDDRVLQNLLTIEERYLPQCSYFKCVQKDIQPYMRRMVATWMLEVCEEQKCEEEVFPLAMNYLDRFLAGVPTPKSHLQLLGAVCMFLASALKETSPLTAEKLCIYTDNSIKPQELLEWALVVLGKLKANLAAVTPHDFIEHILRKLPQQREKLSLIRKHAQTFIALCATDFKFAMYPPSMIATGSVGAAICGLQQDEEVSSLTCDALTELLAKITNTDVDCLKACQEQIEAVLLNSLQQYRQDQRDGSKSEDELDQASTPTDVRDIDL
Change | normalised enrichment score
VSAKQKLDFSDTM [V4K] | 0.0513
VSAVQKLDFSDTC [M13C] | 0.697
VSAVQKLDFDDTM [S10D] | 0.539
VSAVQKYDFSDTM [L7Y] | 0.132
VSAVQKLEFSDTM [D8E] | 0.264
VSAVQKLDISDTM [F9I] | 0.139
VSAVQKLDFSTTM [D11T] | 0.352
VSAVQKCDFSDTM [L7C] | 0.192
VSAVQKLDFSDTK [M13K] | 0.383
VSATQKLDFSDTM [V4T] | -0.183
VSAVQKLDFSSTM [D11S] | 0.45
VSSVQKLDFSDTM [A3S] | 0.554
VSAVQHLDFSDTM [K6H] | 0.2
VSAVQKLDFCDTM [S10C] | 0.611
VSAVQYLDFSDTM [K6Y] | 0.143
NSAVQKLDFSDTM [V1N] | 0.863
VSAVQKLDFEDTM [S10E] | 0.737
VSAVQKSDFSDTM [L7S] | -0.123
VSACQKLDFSDTM [V4C] | 0.186
VSAVQKHDFSDTM [L7H] | 0.35
VSAVQKLDFLDTM [S10L] | 0.221
RSAVQKLDFSDTM [V1R] | 1.23
VSAVQRLDFSDTM [K6R] | 0.56
VTAVQKLDFSDTM [S2T] | 0.742
VSAVQKLDFSDWM [T12W] | 0.878

Sample 3
Target: DBP, bZIP domain (human)
Technique: DHFR protein complementation
Sample: yeast
Setting: single substitutions, most at no-binding floor
Relative to: wild-type JUN-FOS pair
Direction: higher = stronger binding
Starting sequence: JUN, bZIP domain (human); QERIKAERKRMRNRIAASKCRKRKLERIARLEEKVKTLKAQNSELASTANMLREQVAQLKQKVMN; partner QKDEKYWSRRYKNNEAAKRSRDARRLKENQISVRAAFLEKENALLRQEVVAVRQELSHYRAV
Change | binding fitness
R53T | -1.45 natural log
S43W | -1.12 natural log
T37D | -1.41 natural log
K39I | -1.47 natural log
E33G | -1.47 natural log
R53N | -1.54 natural log
Q55T | -1.55 natural log
S43D | -1.06 natural log
M51W | -1.46 natural log
V56K | -1.6 natural log
S47V | -1.46 natural log
E32Y | -1.3 natural log
A29H | -1.03 natural log
E33V | -1.39 natural log

Sample 4
Target: Max dimerization protein 1, bHLH-zipper, MAX partner unstated (MXD1, Homo sapiens, UniProt Q05195, residues 56-136)
Technique: protein-binding microarray
Molecule type: double-stranded DNA, one strand shown
Sample: in vitro
Concentration: not given
Setting: k-mer, scored over probes, only values ≥0.25
Direction: higher = stronger binding
Residues (chain): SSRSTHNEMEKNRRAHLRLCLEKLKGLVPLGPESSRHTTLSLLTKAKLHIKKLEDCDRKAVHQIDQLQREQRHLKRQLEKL
Strand | E-score
AACGCGTG | 0.382
AGCGTGCC | 0.324
ACATGGGA | 0.302
CAATGTGC | 0.329
TGCGTCCA | 0.273
CGACACGC | 0.355
AGGGGAGG | 0.269
ACGTGGCA | 0.362
ATGCACAT | 0.299
CACATGTA | 0.461
ACCACGCA | 0.276
ACGTGCGA | 0.321
CCTCCTCC | 0.3
CCATGTGC | 0.472
CACGTGCA | 0.491
ACCCCACG | 0.271
CCCCCCAC | 0.294
ACACGCCA | 0.252
ACCTCGTG | 0.418
ACGTGTCG | 0.388
AACACATG | 0.447
CCGCCACC | 0.275
AACGTGCT | 0.35
CCATGAGA | 0.336
AACATGCG | 0.41

Sample 5
Target: ABI1, truncated, D143A, DHFR fusion (Arabidopsis thaliana)
Technique: DHFR PCA, deep sequencing
Sample: yeast
Setting: methotrexate growth selection, single substitutions
Together with: (+)-ABA 710 µM
Relative to: wild-type fitted maximum
Direction: higher = stronger binding
Starting sequence: PYL1, truncated, DHFR fusion (Arabidopsis thaliana); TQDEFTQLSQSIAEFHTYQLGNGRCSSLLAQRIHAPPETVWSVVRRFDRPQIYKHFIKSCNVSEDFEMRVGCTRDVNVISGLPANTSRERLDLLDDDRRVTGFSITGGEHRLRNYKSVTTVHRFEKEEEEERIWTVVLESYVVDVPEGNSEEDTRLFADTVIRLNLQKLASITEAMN; partner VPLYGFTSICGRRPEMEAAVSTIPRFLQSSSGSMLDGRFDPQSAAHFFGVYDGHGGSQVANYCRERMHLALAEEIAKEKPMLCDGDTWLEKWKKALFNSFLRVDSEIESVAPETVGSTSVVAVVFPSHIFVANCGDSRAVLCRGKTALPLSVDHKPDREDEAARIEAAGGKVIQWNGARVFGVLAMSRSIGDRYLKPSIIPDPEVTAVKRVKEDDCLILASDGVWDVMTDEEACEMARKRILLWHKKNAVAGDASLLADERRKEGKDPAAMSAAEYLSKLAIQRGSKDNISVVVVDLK
Change | relative binding score
E174C | 95.3%
H110D | 7.18%
A30Y | 96.7%
D144I | 69.1%
C72G | 95.1%
T173G | 89.7%
D48G | 78.6%
K58M | 90%
I162E | 9.72%
D65G | 101%
P50R | -2.37%
N85F | 96.3%
S11P | 114%
Q51F | 101%
I12C | 91.3%
R132F | 108%
Q31A | 74.1%
A13S | 96.7%
T154L | 77.5%
S140K | 28.1%

A few entries again (sample 4):
Strand | E-score
ACGTGTCG | 0.388
ACCTCGTG | 0.418
ACCCCACG | 0.271
CAATGTGC | 0.329
AACGCGTG | 0.382
